# Results of several laboratories.
# Parts stem from different laboratories: compare values within a part only. Substitutions count along the parent as printed.

# Block 1
# Target: Histone acetyltransferase KAT6A, winged helix 2, GST fusion (KAT6A, Homo sapiens, UniProt Q92794, residues 85-181)
# Technique: protein binding microarray
# Molecule type: double-stranded DNA, one strand shown
# Matrix: in vitro
# Concentration: not given
# Setting: 8-mer, flanks averaged, mean of 2 arrays, mostly near background
# Relative to: not given
# Direction: higher = stronger binding
# Residues (chain): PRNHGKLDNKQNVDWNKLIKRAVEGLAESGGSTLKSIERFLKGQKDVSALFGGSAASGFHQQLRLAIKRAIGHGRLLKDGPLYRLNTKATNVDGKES
Sequence,E-score
GGAGCTAC,-0.0722
ATTAACAA,0.099
ACTGATCA,-0.0104
AAAATCCC,-0.0613
TACTAATA,-0.0111
CCGACCGG,0.175
ACGTGTGG,-0.252
CCGGCAAA,0.169
GCGACCAC,0.0929
GGACTCCC,-0.0586
ATTTTCCC,0.0552
AATGTGCG,0.065
GCATTTGA,0.00094
CTTCTTTC,-0.0741
AAGGTATA,-0.127
TCATTGCA,0.148
CAATTCCG,0.116
ATGCAATG,0.0912

# Block 2
# Target: RING finger protein unkempt homolog, zinc fingers 1-6, GST-SBP tag (UNK, Homo sapiens, UniProt Q9C0B0, residues 30-357)
# Sequence of UniProt Q9C0B0 (30-357, looked up): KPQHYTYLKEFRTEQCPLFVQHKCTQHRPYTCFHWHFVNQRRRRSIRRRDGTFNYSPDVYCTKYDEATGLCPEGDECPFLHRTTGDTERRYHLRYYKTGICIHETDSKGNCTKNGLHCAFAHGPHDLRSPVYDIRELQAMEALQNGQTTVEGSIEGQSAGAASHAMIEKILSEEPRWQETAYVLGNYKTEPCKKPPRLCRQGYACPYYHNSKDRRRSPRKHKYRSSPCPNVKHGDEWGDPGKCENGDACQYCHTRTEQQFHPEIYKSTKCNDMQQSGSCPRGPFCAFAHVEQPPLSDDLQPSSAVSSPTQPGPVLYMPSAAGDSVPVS
# Technique: RNA Bind-n-Seq
# Molecule type: RNA
# Matrix: in vitro
# Concentration: not given
# Setting: RNA with constant flanks, human-mouse chimeric sites, ends assumed
# Relative to: input RNA pool
# Direction: higher = stronger binding
# Constant ends, left off below: GGGAGUUCUACAGUCCGACGAUC … CAACAGAGGAUUGAGCAUCA
Sequence,bound/input enrichment
GGGACUGAUUCAUCCCAAGGACAGGCCACCCCAUUUGGUGUUUGGAAUGAUGACAGUAUGGAAGGGCCUAGUCAAAAUUUUGAAGCUGAGUCAAUUCAGGAUGCCAUGAGUAUGGAAGAG,0.215 ratio
CUGUGUGUGCUGAAUAAAUGGCUUGUAAAGAAGUUUUUCCAAGCUGUAACCCAUGCUGUUAUUAUAGUUGCUGCAAAAUGUUCUUCCUAUUGAUGUUUUUAUUUGUUCUGACUCUCCCUC,0.766 ratio
UGGCGCCUGCGCUCCCCACUCGUGUUUUUAAGUGUAUUUUUAUAAGACAUGUGUAUUUACAAUUGAGCUUUUGUUACAUAAUGCUGAAAUGCUACUGGAGAUUAUGAAAAAUGUUUCAAU,0.149 ratio
GAUCAUGAACCACCAUCAGAAAUGAAGAUGAGAUUACCCAGACGAGCCAAAACAGCUGCGCUACAGAAAAAGUAAACUAACCUUGCAGAGUUCCUUAAAUGAAGAUCAAGUUAAGAGAGC,0.333 ratio
CCCUCCCCGGGCCACCCACCCCUCCCGGCUCCCCGCCGAGAUCCAGGUUUCUUCUUAUUUCAUAGCAAAUAAGAAAAAUGUUCUACGCACAUUUUGUUCUCAGUAAAAGAGGGCCUCUGG,0.68 ratio
AACGUGGAGUUGAGUUCCUUGGCCCGGCUUCCCAGCUUGAAUAAACUCCGGAAGUUGGAACUUAGUGAUAAUAUAAUUUCUGGAGGCUUGGAAGUCCUGGCAGAGAAAUGUCCAAAUCUU,5.64 ratio
UUUGUAAUAUCUGUAAAAAAGGUUUCUCCCCUACUGUCAAAAAAUAUGCAUGUAUAGUAAUUAGGACUUCAUUCCUCCAUGUUUUCUUCCCUUAUCUUACUGUCAUUGUCCUUAAACCUU,1.03 ratio
UUAAACACCAAGCUGAUGGACUCUGAUGGCCUCCAUCUCUCAGGCACGUUUGCCUUCUCUUAGUCCCUGUUUUCGGGAUGUUAUGAAUCUCAGUACUGUGGUUUGAAAGCACCAGCUUUG,0.177 ratio
GGACAUCUGUCAAAUUGUUAUGUUCCUGUGAAACAAGUGAACACUCUGAUACACUUCAUCUGCUUGUACAUCUGUAUGAUAGAGAAACAGAAAUCUAAAUAUAUUUACAAUGUGUCACUU,0.246 ratio
AGAUUCCCUCUCUUAAAACCUCCUCCGAAGUUGGAGUCUCUUACAGAUGCCUCAUCCCCUGUUAGUAUUUUAGUUUGGACCACCCAGCCUUGGACAAUUCCCGCCAACCAGGCAAUUUGC,2.17 ratio
UAAGUCCAUUUGUAAGCCUUCGCUCAUUAUAUUUUAAAUUCUGGACCAAUAGUGUUUGUUUCCUGAUUAUUGUAUCCAAUACUUUGCCUAGUAUGUAACUCACUCUUACUGAUAAUAAAA,6.62 ratio

# Block 3
# Target: NFE2, bZIP domain (human)
# Technique: DHFR protein complementation
# Matrix: yeast
# Setting: single substitutions, most at no-binding floor
# Relative to: wild-type JUN-FOS pair
# Direction: higher = stronger binding
# Starting sequence: JUN, bZIP domain (human); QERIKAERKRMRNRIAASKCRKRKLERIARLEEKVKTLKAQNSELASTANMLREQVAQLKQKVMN; partner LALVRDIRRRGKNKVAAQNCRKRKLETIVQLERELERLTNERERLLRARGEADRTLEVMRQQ
Variant,binding fitness [natural log]
Q55T,-1.45
V35C,-1.47
E33F,-1.46
V35G,-1.46
L31F,-1.52
T48I,-1.53
E54P,-1.46
A57R,-1.37
E44I,-1.53
A46L,-1.39
M51W,-1.49
L52H,-1.48
T48P,-1.43
L45P,-1.48
I28V,-1.48
K36T,-1.46
E32N,-1.41
K39D,-1.44
E33A,-1.4
R53G,-1.41
A29Y,-1.34
Q41K,-1.33

# Block 4
# Target: Sal-like protein 4, full length isoform A (SALL4, Homo sapiens, UniProt Q9UJQ4, residues 1-1053)
# Sequence of UniProt Q9UJQ4 (whole entry, looked up): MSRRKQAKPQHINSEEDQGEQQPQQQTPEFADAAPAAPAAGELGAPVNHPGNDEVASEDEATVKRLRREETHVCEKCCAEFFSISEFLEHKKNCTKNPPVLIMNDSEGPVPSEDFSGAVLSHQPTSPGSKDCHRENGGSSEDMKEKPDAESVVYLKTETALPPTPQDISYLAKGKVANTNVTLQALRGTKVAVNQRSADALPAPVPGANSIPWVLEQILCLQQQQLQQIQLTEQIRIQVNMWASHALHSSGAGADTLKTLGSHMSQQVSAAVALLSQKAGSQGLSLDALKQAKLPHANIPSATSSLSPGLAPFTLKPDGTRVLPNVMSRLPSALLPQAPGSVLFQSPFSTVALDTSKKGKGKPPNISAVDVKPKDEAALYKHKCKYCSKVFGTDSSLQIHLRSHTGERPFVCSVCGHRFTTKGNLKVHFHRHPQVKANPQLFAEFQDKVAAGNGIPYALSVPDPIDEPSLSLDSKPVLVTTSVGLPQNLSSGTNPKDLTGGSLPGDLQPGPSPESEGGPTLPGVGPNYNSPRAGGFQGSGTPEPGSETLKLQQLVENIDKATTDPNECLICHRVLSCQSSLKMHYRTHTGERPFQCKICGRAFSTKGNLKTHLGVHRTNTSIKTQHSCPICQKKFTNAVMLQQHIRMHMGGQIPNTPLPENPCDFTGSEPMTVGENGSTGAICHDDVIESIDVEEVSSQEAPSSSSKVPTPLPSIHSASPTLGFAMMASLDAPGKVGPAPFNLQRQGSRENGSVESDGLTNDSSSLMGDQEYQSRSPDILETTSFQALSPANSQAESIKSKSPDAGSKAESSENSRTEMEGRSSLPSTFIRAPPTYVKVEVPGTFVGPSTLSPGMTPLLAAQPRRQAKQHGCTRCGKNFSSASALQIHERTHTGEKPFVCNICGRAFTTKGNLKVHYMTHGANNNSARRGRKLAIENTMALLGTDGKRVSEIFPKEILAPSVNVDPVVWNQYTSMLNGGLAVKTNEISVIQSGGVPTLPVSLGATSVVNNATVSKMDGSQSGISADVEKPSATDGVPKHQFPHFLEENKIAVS
# Technique: universal PBM
# Molecule type: double-stranded DNA, one strand shown
# Matrix: in vitro
# Concentration: 600 nM
# Setting: 8-mer, flanks averaged, mean of replicates
# Direction: higher = stronger binding
Sequence,E-score
CCGCTCGC,-0.23
GAGGGTTA,0.0323
CCCCGCAG,-0.348
GCGTTCTA,-0.093
TCAAGAGA,0.0946
CAATGGCG,-0.305
ATGCTGAA,0.00626
CTCATTGA,-0.073
GGGATCAA,0.0346
CTGGCCCA,-0.298
ACTATCCT,0.0619
GGAACCTA,-0.0743
AATCTATG,0.224
GGTTGTAC,-0.115
AGATGTCA,0.095
CGATACCA,0.0745
GGTGACGA,0.0548
AGCTCAGG,-0.17
CGCCAATC,-0.153
CGACGGCG,-0.312
CCGGCATA,-0.121
CTGCGCAA,-0.123

# Block 5
# Target: Prothrombin, mature alpha-thrombin (F2, Homo sapiens, UniProt P00734)
# Technique: aptamer microarray, sandwich
# Molecule type: DNA with 2'F-ANA
# Matrix: in vitro
# Concentration: 200 nM
# Setting: whole 15-mer aptamer, many near background
# With: Cy3 exosite-II aptamer, 400 nM
# Direction: higher = stronger binding
# Sequence: GGTTGGTGTGGTTGG
Modification,mean fluorescence intensity [a.u.]
2'F-ANA at 2 3 7 8 10,504
2'F-ANA at 1 2 4 6 8 9 12 14 15,73.3
2'F-ANA at 2 4 5 8 10 11 13 15,44.8
2'F-ANA at 1 3 4 5 6 9 10 11 13 15,51.4
2'F-ANA at 2 7 8 9 12,840
2'F-ANA at 3 5 6 10 11 14 15,50.5
2'F-ANA at 1 7 8 10 12 15,75.5
2'F-ANA at 1 2 4 5 6 8 9 11 14,54.7
2'F-ANA at 2 3 6 7 8 13 15,644
2'F-ANA at 3 4 6 10 12 13 14,222
2'F-ANA at 3 12 13 14 15,627
2'F-ANA at 4 6 7 8 10 12,126
2'F-ANA at 3 4 6 7 11 13 14,298
2'F-ANA at 4 6 7 8 9 11 14 15,84.2
2'F-ANA at 1 2 4 5 7 9 10 12 15,90.4
2'F-ANA at 1 5 6 8 9 10 13 14,48.3
2'F-ANA at 1 2 5 9 10 11 12 14,43.1
2'F-ANA at 5 11 12,128
2'F-ANA at 4 9 10 11 13 14 15,53.6
2'F-ANA at 4 6 10 12,111
2'F-ANA at 3 5 7 9 10 11 13 14,53.1
2'F-ANA at 2 3 6 7 9 10 12 13 15,372
2'F-ANA at 2 3 4 7 8 10 11 12 13 14 15,159
2'F-ANA at 1 2 4 5 6 7 10 12 13,46.8
2'F-ANA at 2 3 6 9 11 13 14 15,292

# Repeated from above (block 2):
Sequence,bound/input enrichment
UUUGUAAUAUCUGUAAAAAAGGUUUCUCCCCUACUGUCAAAAAAUAUGCAUGUAUAGUAAUUAGGACUUCAUUCCUCCAUGUUUUCUUCCCUUAUCUUACUGUCAUUGUCCUUAAACCUU,1.03 ratio
GAUCAUGAACCACCAUCAGAAAUGAAGAUGAGAUUACCCAGACGAGCCAAAACAGCUGCGCUACAGAAAAAGUAAACUAACCUUGCAGAGUUCCUUAAAUGAAGAUCAAGUUAAGAGAGC,0.333 ratio
CCCUCCCCGGGCCACCCACCCCUCCCGGCUCCCCGCCGAGAUCCAGGUUUCUUCUUAUUUCAUAGCAAAUAAGAAAAAUGUUCUACGCACAUUUUGUUCUCAGUAAAAGAGGGCCUCUGG,0.68 ratio
CUGUGUGUGCUGAAUAAAUGGCUUGUAAAGAAGUUUUUCCAAGCUGUAACCCAUGCUGUUAUUAUAGUUGCUGCAAAAUGUUCUUCCUAUUGAUGUUUUUAUUUGUUCUGACUCUCCCUC,0.766 ratio
UGGCGCCUGCGCUCCCCACUCGUGUUUUUAAGUGUAUUUUUAUAAGACAUGUGUAUUUACAAUUGAGCUUUUGUUACAUAAUGCUGAAAUGCUACUGGAGAUUAUGAAAAAUGUUUCAAU,0.149 ratio
UAAGUCCAUUUGUAAGCCUUCGCUCAUUAUAUUUUAAAUUCUGGACCAAUAGUGUUUGUUUCCUGAUUAUUGUAUCCAAUACUUUGCCUAGUAUGUAACUCACUCUUACUGAUAAUAAAA,6.62 ratio
GGGACUGAUUCAUCCCAAGGACAGGCCACCCCAUUUGGUGUUUGGAAUGAUGACAGUAUGGAAGGGCCUAGUCAAAAUUUUGAAGCUGAGUCAAUUCAGGAUGCCAUGAGUAUGGAAGAG,0.215 ratio
UUAAACACCAAGCUGAUGGACUCUGAUGGCCUCCAUCUCUCAGGCACGUUUGCCUUCUCUUAGUCCCUGUUUUCGGGAUGUUAUGAAUCUCAGUACUGUGGUUUGAAAGCACCAGCUUUG,0.177 ratio
GGACAUCUGUCAAAUUGUUAUGUUCCUGUGAAACAAGUGAACACUCUGAUACACUUCAUCUGCUUGUACAUCUGUAUGAUAGAGAAACAGAAAUCUAAAUAUAUUUACAAUGUGUCACUU,0.246 ratio
AGAUUCCCUCUCUUAAAACCUCCUCCGAAGUUGGAGUCUCUUACAGAUGCCUCAUCCCCUGUUAGUAUUUUAGUUUGGACCACCCAGCCUUGGACAAUUCCCGCCAACCAGGCAAUUUGC,2.17 ratio
AACGUGGAGUUGAGUUCCUUGGCCCGGCUUCCCAGCUUGAAUAAACUCCGGAAGUUGGAACUUAGUGAUAAUAUAAUUUCUGGAGGCUUGGAAGUCCUGGCAGAGAAAUGUCCAAAUCUU,5.64 ratio
